# Assay results gathered from unrelated publications.
# Protocols differ between the studies behind these lines. Several values in a cell are separate wells, animals, samples, runs or records. ± gives the spread as reported.
# Sequence of UniProt P05177 (whole entry, looked up): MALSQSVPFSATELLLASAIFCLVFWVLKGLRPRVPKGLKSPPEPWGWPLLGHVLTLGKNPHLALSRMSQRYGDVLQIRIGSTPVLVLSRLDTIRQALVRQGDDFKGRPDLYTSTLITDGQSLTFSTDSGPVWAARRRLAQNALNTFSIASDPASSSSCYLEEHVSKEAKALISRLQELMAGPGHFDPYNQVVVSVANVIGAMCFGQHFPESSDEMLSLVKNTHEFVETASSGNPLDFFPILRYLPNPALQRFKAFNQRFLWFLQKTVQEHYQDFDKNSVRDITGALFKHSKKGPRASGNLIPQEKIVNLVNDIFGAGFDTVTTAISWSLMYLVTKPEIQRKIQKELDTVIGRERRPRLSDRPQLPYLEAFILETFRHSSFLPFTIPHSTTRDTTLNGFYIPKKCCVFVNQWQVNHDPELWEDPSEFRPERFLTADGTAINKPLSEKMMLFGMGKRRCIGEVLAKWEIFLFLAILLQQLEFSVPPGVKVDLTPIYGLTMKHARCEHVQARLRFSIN
# Sequence of UniProt Q96FL8 (whole entry, looked up): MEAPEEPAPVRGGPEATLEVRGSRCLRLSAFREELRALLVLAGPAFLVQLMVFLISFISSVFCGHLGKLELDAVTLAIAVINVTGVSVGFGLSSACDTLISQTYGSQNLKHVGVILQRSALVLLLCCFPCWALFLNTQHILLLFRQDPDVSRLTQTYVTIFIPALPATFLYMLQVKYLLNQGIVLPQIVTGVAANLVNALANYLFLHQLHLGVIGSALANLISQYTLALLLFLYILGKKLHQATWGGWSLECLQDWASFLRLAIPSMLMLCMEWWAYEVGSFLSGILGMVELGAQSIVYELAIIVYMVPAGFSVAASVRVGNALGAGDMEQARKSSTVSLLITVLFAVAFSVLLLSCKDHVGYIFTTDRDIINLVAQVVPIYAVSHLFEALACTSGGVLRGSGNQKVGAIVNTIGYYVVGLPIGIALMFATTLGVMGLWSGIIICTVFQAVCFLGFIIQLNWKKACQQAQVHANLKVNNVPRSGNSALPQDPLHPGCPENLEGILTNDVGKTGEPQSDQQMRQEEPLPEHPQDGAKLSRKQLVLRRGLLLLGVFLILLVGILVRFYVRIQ
Compound,tested on,assay,system,setting,quantity,value
CN1CC[C@]23c4c5ccc(O)c4O[C@H]2[C@H](O)C=C[C@H]3[C@H]1C5,,,,,log tautomerization constant,-0.32
COc1ccc(-n2cc(C(=O)N3C[C@]4(OC(=O)c5ccccc5NC(C)=O)CC[C@H](OC)[C@@]56[C@@H]4C[C@@H]([C@@H]35)[C@@]3(O)C[C@H](OC)[C@H]4C[C@@H]6[C@]3(O)[C@H]4OC)nn2)cc1,,,"rat Sprague-Dawley, plasma","intravenous, 2 mg/kg",MRT(0-t),16.9 min
CN1CC[C@]23c4c5ccc(O)c4O[C@H]2[C@H](O)CC[C@@]3(O)[C@H]1C5,,,,phenolate protonated,log k amino protonation,9.55
Cc1nc2cccc(OCC(C)(C)C(=O)NC(C)C)c2c(N)c1C(=O)[O-].[Na+],Escherichia coli,"reverse mutation, preincubation",WP2 uvrA,"0.13 mg/plate, with rat liver S9",revertant colonies,38 ± 7 colonies/plate
O=C1CC[C@@]2(O)[C@H]3Cc4ccc(O)c5c4[C@@]2(CCN3CCc2ccccc2)[C@H]1O5,,,,,log tautomerization constant,1.81
Cc1ccn2c(-c3csc(Nc4ccccn4)n3)c(C)nc2c1,HEK-293T,cytotoxicity,,3 days,IC50,> 10 µM
Oc1ccc2c3c1OC1C(O)C=CC4C(C2)N(CC2CCC2)CCC341 (stereo not drawn),,,,phenolate site,log k protonation constant,9.14
CC[C@H](C)[C@H](NC(=O)[C@H](CCCCN)NC(=O)CNC(=O)[C@H](CC(C)C)NC(=O)[C@H](Cc1ccccc1)NC(=O)[C@H](CCCCN)NC(=O)[C@H](CO)NC(=O)[C@H](Cc1ccccc1)NC(=O)[C@H](Cc1c[nH]c2ccccc12)NC(=O)[C@H](CCC(N)=O)NC(=O)[C@@H](NC(=O)[C@H](Cc1ccccc1)NC(=O)CCCCCNC(=O)CN1CCN(CC(=O)O)CCN(CC(=O)O)CCN(CC(=O)O)CC1)C(C)C)C(=O)N[C@@H](CCC(=O)O)C(=O)N1CCC[C@H]1C(=O)N[C@@H](CC(=O)O)C(=O)N[C@H](C(=O)N[C@@H](CO)C(=O)N[C@@H](CCC(N)=O)C(=O)N[C@H](C(=O)N[C@@H](CCC(N)=O)C(=O)N[C@@H](CC(=O)O)C(=O)N1CCC[C@H]1C(=O)N[C@@H](CC(N)=O)C(=O)N[C@@H](CC(=O)O)C(=O)N[C@@H](CCC(N)=O)C(=O)N[C@@H](Cc1ccc(O)cc1)C(=O)N[C@@H](CCC(=O)O)C(=O)N1CCC[C@H]1C(=O)N[C@@H](Cc1ccccc1)C(=O)O)C(C)C)C(C)C [copper-64 labelled],,,"C57BL/6 mice, stomach","vehicle, intratracheal instillation",tissue uptake,2.98 ± 0.7 %ID/g
CC(=O)NCCCC[C@@H]1NC(=O)[C@H](Cc2c[nH]c3c(C)cccc23)NC(=O)[C@H]([C@@H](C)O)NC(=O)[C@H](CC(N)=O)NC(=O)[C@@H](NC(C)=O)C(C)(C)SSC(C)(C)[C@@H](C(=O)N[C@@H](Cc2ccc(OCCN)cc2)C(=O)N[C@@H](Cc2ccc3ccccc3c2)C(=O)NC2(C(=O)N[C@@H](CCC(=O)O)C(=O)N[C@@H](CC(N)=O)C(=O)N[C@@H](Cc3cccnc3)C(=O)N(C)CC(N)=O)CCOCC2)NC1=O,"SLC47A1 (Homo sapiens, UniProt Q96FL8)",substrate,MDCK-II overexpressing transporter,"5 µM, 30 min, with: 100 µM pyrimethamine",uptake rate,0.164 ± 0.004 pmol/mg/min
O=C1CC[C@H]2[C@H]3Cc4ccc(O)c5c4[C@@]2(CCN3CCc2ccccc2)[C@H]1O5,,,,phenolate site,log k protonation constant,7.96
C#Cc1ccc2c(c1)C(c1ccccn1)=NCc1c(-c3cnco3)ncn1-2,,,"rat, plasma","oral, 2 mg/kg",Cmax,670 nM
Cc1ccc(NS(=O)(=O)c2c(C(=O)N3CCCCCC3)c(C)n(C)c2C)c(Cl)c1,HaCaT,,,"11.11 µM, 60 h",viability,102% and 97%
NC[C@]1(CC(=O)O)CC[C@@H]([18F])CC1,,PET,"rhesus monkey, brain","intravenous, 180 min, baseline scan",SUV,0.28
Cc1cc(-c2ccc3ccccc3c2)nnc1NCCN1CCN(C)CC1,"Cytochrome P450 1A2 (CYP1A2, Homo sapiens, UniProt P05177)",substrate,recombinant enzyme,100 nM,half-life,> 60 min
C[C@H]1[C@H](OC(=O)CCC(=O)OCc2nnn(-c3cc4ccc(O)cc4oc3=O)c2COC(=O)CCC(=O)O[C@@H]2O[C@@H]3O[C@@]4(C)CC[C@H]5[C@H](C)CC[C@@H]([C@H]2C)[C@@]35OO4)O[C@@H]2O[C@@]3(C)CC[C@H]4[C@H](C)CC[C@@H]1[C@@]24OO3,Plasmodium berghei,flow cytometry,infected mouse blood,"3 µM, 1 h",uptake into parasites,7 ± 3 % stained cells
O=C(/C=C/c1ccc(Br)cc1)c1ccc(NS(=O)(=O)c2ccc(C(F)(F)F)cc2)cc1,Danio rerio,,"wild type, embryos","immersion, up to 120 hpf, exposure from 5 hpf",LC50,9.12 µM
O=C1CC[C@@]2(O)[C@H]3Cc4ccc(O)c5c4[C@@]2(CCN3CC2CCC2)[C@H]1O5,,,,phenolate site,log k protonation constant,9
CN1Cc2cc(Cl)ccc2-n2c(nnc2C2CCN(c3cccc([18F])n3)CC2)C1,,PET two-tissue compartment model,"rhesus monkey, cerebellum","intravenous, dose not given, 100 min scan, baseline scan",total volume of distribution,0.97 ± 0.39 mL/cm3
Cc1sc2c(c1C)C(c1ccc(Cl)cc1)=N[C@@H](CC(=O)OC(C)(C)C)c1nnc(C)n1-2,,,"CD1 mouse, male, plasma","intravenous, 5 mg/kg",MRT(0-inf),51.7 min
CN1CC[C@]23c4c5ccc(O)c4O[C@H]2[C@H](O)C=C[C@@]3(O)[C@H]1C5,,,,,log k amino protonation,9.63
O=C1NC2(CC2)COc2ncc(F)cc2[C@H]2COCCN2c2ccn3ncc1c3n2,,,"Sprague-Dawley rat, female, serum","oral, 2.5 mg/kg/day, end of recovery, 4-week subacute toxicity",serum urea,3.65 ± 0.27 mmol/L

# Repeated from above:
Compound,tested on,assay,system,setting,quantity,value
C[C@H]1[C@H](OC(=O)CCC(=O)OCc2nnn(-c3cc4ccc(O)cc4oc3=O)c2COC(=O)CCC(=O)O[C@@H]2O[C@@H]3O[C@@]4(C)CC[C@H]5[C@H](C)CC[C@@H]([C@H]2C)[C@@]35OO4)O[C@@H]2O[C@@]3(C)CC[C@H]4[C@H](C)CC[C@@H]1[C@@]24OO3,Plasmodium berghei,flow cytometry,infected mouse blood,"3 µM, 1 h",uptake into parasites,7 ± 3 % stained cells
